Assay results pooled from the literature.
Numbered parts are unrelated; each lists some results of a single study. Substitutions count along the parent as printed.

Set 1
Target: Sal-like protein 4, full length isoform A (SALL4, Homo sapiens, UniProt Q9UJQ4, residues 1-1053)
Chain of UniProt Q9UJQ4 (whole entry, looked up): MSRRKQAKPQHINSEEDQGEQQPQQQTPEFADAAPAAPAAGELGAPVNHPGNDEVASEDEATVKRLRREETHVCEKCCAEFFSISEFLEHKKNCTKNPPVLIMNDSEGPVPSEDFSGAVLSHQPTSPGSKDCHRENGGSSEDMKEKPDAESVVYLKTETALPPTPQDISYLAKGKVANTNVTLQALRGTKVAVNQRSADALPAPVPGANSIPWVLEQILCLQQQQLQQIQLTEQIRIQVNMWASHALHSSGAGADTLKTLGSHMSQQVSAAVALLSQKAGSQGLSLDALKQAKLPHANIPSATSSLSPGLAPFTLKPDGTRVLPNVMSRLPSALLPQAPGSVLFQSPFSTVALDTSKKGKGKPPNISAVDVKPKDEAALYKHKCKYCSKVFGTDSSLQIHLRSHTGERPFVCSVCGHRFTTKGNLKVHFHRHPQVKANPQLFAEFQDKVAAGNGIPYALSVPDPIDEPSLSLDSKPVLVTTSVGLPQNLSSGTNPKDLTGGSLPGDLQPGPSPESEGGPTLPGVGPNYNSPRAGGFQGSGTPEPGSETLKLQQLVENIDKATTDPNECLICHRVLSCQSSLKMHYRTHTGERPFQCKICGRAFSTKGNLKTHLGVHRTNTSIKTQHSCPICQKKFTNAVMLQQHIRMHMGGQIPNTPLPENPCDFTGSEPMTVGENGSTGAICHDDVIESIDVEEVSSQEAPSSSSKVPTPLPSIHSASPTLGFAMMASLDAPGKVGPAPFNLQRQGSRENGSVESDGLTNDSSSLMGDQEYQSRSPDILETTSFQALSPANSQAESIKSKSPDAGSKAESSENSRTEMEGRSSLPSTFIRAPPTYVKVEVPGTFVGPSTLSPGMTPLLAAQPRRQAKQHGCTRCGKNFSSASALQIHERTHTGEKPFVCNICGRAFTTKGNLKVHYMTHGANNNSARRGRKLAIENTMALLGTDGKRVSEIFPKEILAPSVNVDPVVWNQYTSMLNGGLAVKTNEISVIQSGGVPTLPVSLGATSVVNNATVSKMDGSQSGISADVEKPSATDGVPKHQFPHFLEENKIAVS
Method: universal PBM
Form: double-stranded DNA, one strand shown
Sample: in vitro
Concentration: 600 nM
Setting: 8-mer, flanks averaged, mean of replicates
Reading: higher = stronger binding
Measurement: E-score
CACGCACG: -0.224
AAAGTAGT: 0.102
ATGGGGGA: -0.0744
ACCACGGC: -0.175
AGGACATA: 0.12
AACCAGGC: -0.236
GCGCTAGC: -0.29
AGGATCAT: 0.0952

Set 2
Target: Max dimerization protein 1, bHLH-zipper, MAX partner unstated (MXD1, Homo sapiens, UniProt Q05195, residues 56-136)
Method: protein-binding microarray
Form: double-stranded DNA, one strand shown
Sample: in vitro
Concentration: not given
Setting: k-mer, scored over probes, only values ≥0.25
Reading: higher = stronger binding
Measurement: E-score
Construct (chain): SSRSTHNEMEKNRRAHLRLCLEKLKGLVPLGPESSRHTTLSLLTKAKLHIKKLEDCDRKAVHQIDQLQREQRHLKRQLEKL
GGGGACCA: 0.265
ATCATGCA: 0.269
ACTCATGC: 0.329
ATTGCATG: 0.253
CGGGCACA: 0.293
CATGTTCA: 0.254
ATCACACG: 0.326
AGCCACAT: 0.25

Set 3
Target: RNA binding protein fox-1 homolog 2, RRM domain, GST-SBP tag (RBFOX2, Homo sapiens, UniProt O43251-10, residues 100-194)
Method: RNA Bind-n-Seq
Form: RNA
Sample: in vitro
Concentration: 365 nM
Setting: natural RNA segment, single round, ends assumed
Baseline: no-protein control
Reading: higher = stronger binding
Measurement: RBNS enrichment (R)
Shared flanks, not repeated: GGGAGUUCUACAGUCCGACGAUC … UGGAAUUCUCGGGUGCCAA
Residues (chain): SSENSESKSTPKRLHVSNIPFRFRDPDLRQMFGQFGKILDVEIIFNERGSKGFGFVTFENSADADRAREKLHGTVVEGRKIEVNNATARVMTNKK
UGGGCACUGGAGCUACCCAGAGGAAUGCACAACGCUCCCCUCAAGGAGCUCACAGUCUAGCCUACUCCCUGGCUGGAAGCCUCAGGAAGACGUGCUAAUUUAUUGUGGAA: 0.661
UGGCUCCAGAGCUGCUGUUCCCAUCCACGCCAGUGGCCUCGGUCCCUUCUGUGCCAGGCAUUCUGGUCACUGACCUUGAACUAGGCCUGCAGGCUCUCCUGUCACCCCGC: 0.339
GAGGUAACUAAAUAGCCAUUAGAAGAAGAAGUGAAGCCUUUCAUGCAGGAUGAUAGAUCUAACUUAUCAAUGUACUGUCACAGUACAUUAAUCGUUUUAUUUGAGUAGGU: 0.702
UUCCAUGGGGAGGAUGCUGAGUGAGCAGUUUCCUACCCCGUGGAUCUAGCAAGCCAUGGAGACAGGUAGCAUUUGUAAGAUGCUGCACAGGAGCAGCAUUAUCCCCAAAG: 1.74
GUCCAAAAUACUGUUCUUUCCAGGCUAUGUAUAAAAUACAUAGUGAAAAUUGUUUAGUGAUAUUACAUUUAUUUAUCCAGAAAACUGUGAUUUCAGGAGAACCUAACAUG: 0.45
GGCCAUAUAGUAAUGGAAAGCUGCAAUAAUUAGUUUUAAUACAGCUUGAAUAUUUGCUAUAUAGAAAUAUAGUAUGGAAAGUUUUUGGUCUUAAUGUAGCUACUGUGCGG: 0.679
AGUAGCCGUUUGUGGUUUAAAGCAAACAUGCAAGAUGAACCUGAGGGAUGAUAGAAUACAAAGAAUAUAUUUUUGUUAUGGCUGGUUACCACCAGCCUUUCUUCCCCUUU: 0.259
CUUGUAUCAGAUCCAAAGCUCUAUUGUACAGCAAAUUAUUCUUCAAAAUGAUUAUAACCAGUUGCACCCUGUAUUUCUUUUUGCAGCCAGCACAAUGUGACCCAACUUAA: 0.696

Other studies, line by line
Starting sequence: viral docking peptide; KGVKRKLFAEDSS; partner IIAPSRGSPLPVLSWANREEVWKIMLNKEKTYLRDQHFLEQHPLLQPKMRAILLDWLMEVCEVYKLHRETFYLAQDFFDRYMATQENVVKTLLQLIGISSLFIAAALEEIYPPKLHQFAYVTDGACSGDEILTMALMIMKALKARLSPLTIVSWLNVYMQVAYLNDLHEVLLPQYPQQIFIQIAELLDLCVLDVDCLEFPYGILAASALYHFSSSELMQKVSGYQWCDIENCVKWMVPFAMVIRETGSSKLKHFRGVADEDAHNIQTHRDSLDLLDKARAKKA
KGVKRKLFAEDFS [S12F]  normalised enrichment score (CCNE1, cyclin fold, Cln2 fusion (human); yeast growth competition, sequencing; yeast; strong parent motif; baseline: not given, higher = stronger binding): 7.33

Repeated from above (set 3):
GUCCAAAAUACUGUUCUUUCCAGGCUAUGUAUAAAAUACAUAGUGAAAAUUGUUUAGUGAUAUUACAUUUAUUUAUCCAGAAAACUGUGAUUUCAGGAGAACCUAACAUG: 0.45
GGCCAUAUAGUAAUGGAAAGCUGCAAUAAUUAGUUUUAAUACAGCUUGAAUAUUUGCUAUAUAGAAAUAUAGUAUGGAAAGUUUUUGGUCUUAAUGUAGCUACUGUGCGG: 0.679
AGUAGCCGUUUGUGGUUUAAAGCAAACAUGCAAGAUGAACCUGAGGGAUGAUAGAAUACAAAGAAUAUAUUUUUGUUAUGGCUGGUUACCACCAGCCUUUCUUCCCCUUU: 0.259
CUUGUAUCAGAUCCAAAGCUCUAUUGUACAGCAAAUUAUUCUUCAAAAUGAUUAUAACCAGUUGCACCCUGUAUUUCUUUUUGCAGCCAGCACAAUGUGACCCAACUUAA: 0.696
